# Assay results pooled from the literature.
# Protocols differ between the studies behind these lines. ± gives the spread as reported.
Compound,organism,assay,system,setting,EC50
COC(=O)C[C@](O)(CCCC(C)(C)O)C(=O)O[C@@H]1C(OC)=C[C@]23CCCN2CCc2cc4c(cc2[C@H]13)OCO4,Feline infectious peritonitis virus,"viral replication, visual scoring",,48 h,31 ± 3 nM
Nc1ncnc2c1c(-c1cncnc1)cn2[C@@H]1O[C@H](CO)[C@@H](O)[C@H]1O,Trichomonas vaginalis,resorufin,"G3, metronidazole-sensitive","24 h + 2 h, 2% O2",9800 ± 483 nM
CC[C@H]1CN2CCc3cc(OC)c(OC)cc3[C@@H]2C[C@@H]1C[C@H]1NCCc2cc(OC)c(OC)cc21,Feline infectious peritonitis virus,"viral replication, visual scoring",,48 h,11 nM
O=c1[nH]c(=O)n([C@H]2C[C@H](O)[C@@H](CO)O2)cc1/C=C/Br,varicella-zoster virus,plaque formation,"HEL, TK+ Oka",50% plaque reduction,26 nM
Nc1ccn([C@@H]2O[C@H](CO)[C@@H](O)C2(F)F)c(=O)n1,Feline infectious peritonitis virus,"viral replication, visual scoring",,48 h,1080 ± 350 nM
O=c1nc(NC2CC2)c2ncn(CCOCP(=O)(O)O)c2[nH]1,herpes simplex virus 1,cytopathic effect,"HEL, KOS",,> 100000 nM
O=C(O)P(=O)(O)O,Hepatitis B virus,"viral replication, inhibitor",,,< 50 nM
CCCN1C(=O)c2cccc3cc(NC(=O)[C@@H]4C[C@@H](P(=O)(OCC)OCC)N(C)O4)cc(c23)C1=O (racemic),varicella-zoster virus,"viral plaque formation, plaque reduction","HEL, thymidine kinase positive",,32000 nM
C[C@H](Cn1cnc2c(=O)[nH]c(=O)[nH]c21)OCP(=O)(O)O,herpes simplex virus 1,cytopathic effect,"HEL, KOS",,> 100000 nM
Cc1nc2ccc(CN(C)c3ccc(C(=O)N[C@@H](CCC(=O)O)C(=O)O)s3)cc2c(=O)[nH]1,Hepatitis B virus,"viral replication, inhibitor",,,< 50 nM
Nc1ncn(CC(OCP(=O)(O)O)C(F)(F)F)c(=O)n1 (centres unmarked),herpes simplex virus 1,cytopathic effect,"HEL, KOS, TK+",,> 100000 nM
C/C=C/[C@@H]1C=C[C@@H]2C[C@H](C)CC[C@H]2[C@]1(C)/C(O)=C1/C(=O)N[C@@H](CO)C1=O,Trichomonas vaginalis,viability,,17 h,2500 nM
CC[C@H](C)C(=O)O[C@H]1CCC=C2C=C[C@H](C)[C@H](CC[C@@H]3C[C@@H](O)CC(=O)O3)[C@H]21,Hepatitis B virus,"viral replication, inhibitor",,,2020 nM
O=c1[nH]c(=O)c2ncn(C[C@@H](CF)OCP(=O)(O)O)c2[nH]1,herpes simplex virus 2,cytopathic effect,"HEL, G",,> 329000 nM
CCOC(=O)C(C)NP(=O)(COC(CF)CN1CN2C=C(c3ccc(OC)cc3)NC2=NC1=O)NC(C)C(=O)OCC (centres unmarked),herpes simplex virus 1,cytopathic effect,"HEL, KOS, TK+",,> 100000 nM
C#CCC(Cc1cnc2nc(N)nc(N)c2n1)c1ccc(C(=O)N[C@@H](CCC(=O)O)C(=O)O)cc1 (some centres unmarked),Hepatitis B virus,"viral replication, inhibitor",,,< 50 nM
CCOP(=O)(OCC)[C@@H]1C[C@H](C(=O)Nc2cc3c4c(cccc4c2)C(=O)N(CCN(C)C)C3=O)ON1C (racemic),varicella-zoster virus,"viral plaque formation, plaque reduction","HEL, thymidine kinase positive",,> 20000 nM
Nc1ncnc2c1c(-c1ccc(F)cc1)cn2[C@@H]1O[C@H](CO)C[C@H]1O,Trichomonas vaginalis,resorufin,"G3, metronidazole-sensitive","24 h + 2 h, 2% O2",2000 ± 180 nM
O=c1[nH]c(=O)c2ncn(CCOCP(=O)(O)O)c2[nH]1,herpes simplex virus 1,cytopathic effect,"HEL, KOS",,21500 ± 7600 nM
CCOC(=O)C(C)NP(=O)(COC(CF)CN1CN2C=C(c3ccc([N+](=O)[O-])cc3)NC2=NC1=O)NC(C)C(=O)OCC (centres unmarked),herpes simplex virus 1,cytopathic effect,"HEL, KOS, TK+",,> 100000 nM
C/C=C/C[C@@H](C)[C@@H](O)[C@H]1C(=O)N[C@@H](C(C)C)C(=O)N(C)CC(=O)N(C)[C@@H](CC(C)C)C(=O)N[C@@H](C(C)C)C(=O)N(C)[C@@H](CC(C)C)C(=O)N[C@@H](C)C(=O)N[C@H](C)C(=O)N(C)[C@@H](CC(C)C)C(=O)N(C)[C@@H](CC(C)C)C(=O)N(C)[C@@H](C(C)C)C(=O)N1C,HCoV-NL63,"viral replication, qPCR of supernatant",Caco-2,48 h,2500 nM
C[C@H]1CN(c2n[nH]c3nc(N[C@H]4CC[C@H](NS(=O)(=O)CCC(F)(F)F)CC4)ncc23)CCO1,Leishmania donovani,parasite growth,THP-1,"intracellular, amastigote",1400 nM
Cc1ccc(-c2cn([C@@H]3O[C@H](CO)C[C@H]3O)c3ncnc(N)c23)cc1,Trichomonas vaginalis,resorufin,"G3, metronidazole-sensitive","24 h + 2 h, 2% O2",1550 ± 40 nM
NC1=NC(=O)N(CC(O)C(F)(F)F)CN1 (centres unmarked),herpes simplex virus 1,cytopathic effect,"HEL, KOS, TK+",,> 100000 nM
COC(=O)Nc1nc2ccc(C(=O)c3cccs3)cc2[nH]1,Hepatitis B virus,"viral replication, inhibitor",,,1060 nM
Nc1nc2c(ncn2COCCO)c(=O)[nH]1,herpes simplex virus 1,cytopathic effect,"HEL, KOS, TK+",,480 ± 270 nM
Nc1ncnc2c1ncn2CCOCP(=O)(O)O,herpes simplex virus 1,cytopathic effect,"primary human keratinocytes, KOS",72 h,9.2 ± 0.1 µg/mL
O=c1[nH]c(=O)n([C@H]2C[C@H](O)[C@@H](CO)O2)cc1/C=C/Br,herpes simplex virus 1,cytopathic effect,"HEL, KOS, TK+",,30 ± 20 nM
CCCCN1C(=O)c2cccc3cc(NC(=O)[C@@H]4C[C@@H](P(=O)(OCC)OCC)N(C)O4)cc(c23)C1=O (racemic),varicella-zoster virus,"viral plaque formation, plaque reduction","HEL, thymidine kinase positive",,32000 nM
O=c1[nH]c(=O)c2ncn(C[C@@H](CO)OCP(=O)(O)O)c2[nH]1,herpes simplex virus 1,cytopathic effect,"HEL, KOS",,33000 ± 18000 nM
Nc1ncnc2c1c(-c1ccc(Cl)c(Cl)c1)cn2[C@@H]1O[C@H](CO)C[C@H]1O,Trichomonas vaginalis,resorufin,"G3, metronidazole-sensitive","24 h + 2 h, 2% O2",330 ± 115 nM
Nc1ncn(CC(O)C(F)(F)F)c(=O)n1 (centres unmarked),herpes simplex virus 1,cytopathic effect,"HEL, KOS, TK+",,230000 ± 29000 nM
Nc1ncnc2c1c(-c1ccc(F)c(F)c1)cn2[C@@H]1O[C@H](CO)C[C@H]1O,Trichomonas vaginalis,resorufin,"G3, metronidazole-sensitive","24 h + 2 h, 2% O2",2480 ± 94 nM
O=C(Nc1ccc([N+](=O)[O-])cc1Cl)c1cc(Cl)ccc1O,Feline infectious peritonitis virus,"viral replication, visual scoring",,48 h,290 ± 20 nM
CCc1ccc(-c2cn([C@@H]3O[C@H](CO)C[C@H]3O)c3ncnc(N)c23)cc1,Trichomonas vaginalis,resorufin,"G3, metronidazole-sensitive","24 h + 2 h, 2% O2",790 ± 47 nM
CCCCCCCCCCCCCCCCOCCCOP(=O)(O)COCCn1cnc2c(=O)[nH]c(=O)[nH]c21,herpes simplex virus 1,cytopathic effect,"HEL, KOS",,1800 nM
O=c1[nH]c(=O)n([C@H]2C[C@H](O)[C@@H](CO)O2)cc1F,Hepatitis B virus,"viral replication, inhibitor",,,1530 nM
Cc1cc(-c2cn([C@@H]3O[C@H](CO)C[C@H]3O)c3ncnc(N)c23)ccc1Cl,Trichomonas vaginalis,resorufin,"G3, metronidazole-sensitive","24 h + 2 h, 2% O2",740 ± 58 nM
Cc1nc2c([nH]1)-c1ccccc1N(C(=O)c1ccc(NC(=O)c3ccccc3-c3ccccc3)cc1)CC2,Feline infectious peritonitis virus,"viral replication, visual scoring",,48 h,16900 nM
Nc1ncnc2c1c(-c1cccc(Cl)c1)cn2[C@@H]1O[C@H](CO)C[C@H]1O,Trichomonas vaginalis,resorufin,"G3, metronidazole-sensitive","24 h + 2 h, 2% O2",3670 ± 390 nM
Nc1ccn(C[C@@H](CO)OCP(=O)(O)O)c(=O)n1,herpes simplex virus 2,cytopathic effect,"HEL, clinical isolate NS",,0.53 ± 0.18 µg/mL

# Some of these lines once more:
Compound,organism,assay,system,setting,EC50
Nc1ccn(C[C@@H](CO)OCP(=O)(O)O)c(=O)n1,herpes simplex virus 2,cytopathic effect,"HEL, clinical isolate NS",,0.53 ± 0.18 µg/mL
CCCN1C(=O)c2cccc3cc(NC(=O)[C@@H]4C[C@@H](P(=O)(OCC)OCC)N(C)O4)cc(c23)C1=O (racemic),varicella-zoster virus,"viral plaque formation, plaque reduction","HEL, thymidine kinase positive",,32000 nM
O=C(Nc1ccc([N+](=O)[O-])cc1Cl)c1cc(Cl)ccc1O,Feline infectious peritonitis virus,"viral replication, visual scoring",,48 h,290 ± 20 nM
O=c1[nH]c(=O)c2ncn(C[C@@H](CO)OCP(=O)(O)O)c2[nH]1,herpes simplex virus 1,cytopathic effect,"HEL, KOS",,33000 ± 18000 nM
